Assay results from different studies.
Each numbered part is a random draw from the data of one study; scales do not carry over between parts.

Set 1
Target: Prothrombin, mature alpha-thrombin (F2, Homo sapiens, UniProt P00734)
Method: aptamer microarray, sandwich
Molecule type: DNA with 2'F-ANA
Sample: in vitro
Tested at: 200 nM
Notes: whole 15-mer aptamer, many near background
Added: Cy3 exosite-II aptamer, 400 nM
Reading: higher = stronger binding
Strand: GGTTGGTGTGGTTGG
Under “mean fluorescence intensity”, `2'F-ANA at 1 2 4 6 7 8 10 11 13 14 15` is recorded as 50.9 a.u.
Under “mean fluorescence intensity”, `2'F-ANA at 4 5 6 8 11 12 14 15` is recorded as 46 a.u.
For `2'F-ANA at 5 7 8 9 10 11 13 15`, “mean fluorescence intensity” read 72 a.u.
For `2'F-ANA at 6 9 10 12 13 14 15`, “mean fluorescence intensity” read 110 a.u.
For `2'F-ANA at 1 3 4 6 9 11 12 14`, “mean fluorescence intensity” read 67.8 a.u.
`2'F-ANA at 1 2 4 5 6 10 12 13 15` — result for “mean fluorescence intensity”: 50.4 a.u.
`2'F-ANA at 1 4 5 9 10 14`: “mean fluorescence intensity” 43.9 a.u.
`2'F-ANA at 1 2 4 6 7 8 12 14` — result for “mean fluorescence intensity”: 77.5 a.u.
`2'F-ANA at 2 3 4 5 6 7 8 10 12 13 14 15` — result for “mean fluorescence intensity”: 47.5 a.u.
`2'F-ANA at 4 6 7 8 10 13`: “mean fluorescence intensity” 73.9 a.u.
`2'F-ANA at 1 4 5 9 10 11 13 15`: “mean fluorescence intensity” 45.6 a.u.
Under “mean fluorescence intensity”, `2'F-ANA at 2 7 10 13 15` is recorded as 123 a.u.
`2'F-ANA at 2 4 5 6 7 8 11 12 13 14 15` — result for “mean fluorescence intensity”: 60.5 a.u.
`2'F-ANA at 1 2 5 7 8 10 13 14 15`: “mean fluorescence intensity” 46.9 a.u.
Under “mean fluorescence intensity”, `2'F-ANA at 2 4 8 9 11 13 15` is recorded as 180 a.u.
`2'F-ANA at 3 4 5 6 7 10 13 14 15` — result for “mean fluorescence intensity”: 42.8 a.u.
`2'F-ANA at 2 3 6 9 15`: “mean fluorescence intensity” 709 a.u.
`2'F-ANA at 1 2 3 4 5 7 9 10 11 13` — result for “mean fluorescence intensity”: 68.3 a.u.
Under “mean fluorescence intensity”, `2'F-ANA at 1 3 5 6 7 8 10 11 14` is recorded as 51.3 a.u.
`2'F-ANA at 1 5 6 7 9 11` — result for “mean fluorescence intensity”: 57.4 a.u.
Under “mean fluorescence intensity”, `2'F-ANA at 1 5 6 10 12 14 15` is recorded as 50.8 a.u.
Under “mean fluorescence intensity”, `2'F-ANA at 1 2 3 4 7 8 11 13 15` is recorded as 192 a.u.
Under “mean fluorescence intensity”, `2'F-ANA at 1 2 3 4 8 10 12 13 14` is recorded as 52.1 a.u.
For `2'F-ANA at 2 3 4 7 8 13 14 15`, “mean fluorescence intensity” read 319 a.u.
`2'F-ANA at 3 8 9 13 14`: “mean fluorescence intensity” 617 a.u.

Set 2
Target: Interferon regulatory factor 7, full length, phosphomimetic (IRF7, Homo sapiens, UniProt Q92985, residues 1-503, S101K/S471D/S472D/S475D/S476D/S477D/S483D/S484D/S487D)
Sequence of UniProt Q92985 (whole entry, unmodified, looked up): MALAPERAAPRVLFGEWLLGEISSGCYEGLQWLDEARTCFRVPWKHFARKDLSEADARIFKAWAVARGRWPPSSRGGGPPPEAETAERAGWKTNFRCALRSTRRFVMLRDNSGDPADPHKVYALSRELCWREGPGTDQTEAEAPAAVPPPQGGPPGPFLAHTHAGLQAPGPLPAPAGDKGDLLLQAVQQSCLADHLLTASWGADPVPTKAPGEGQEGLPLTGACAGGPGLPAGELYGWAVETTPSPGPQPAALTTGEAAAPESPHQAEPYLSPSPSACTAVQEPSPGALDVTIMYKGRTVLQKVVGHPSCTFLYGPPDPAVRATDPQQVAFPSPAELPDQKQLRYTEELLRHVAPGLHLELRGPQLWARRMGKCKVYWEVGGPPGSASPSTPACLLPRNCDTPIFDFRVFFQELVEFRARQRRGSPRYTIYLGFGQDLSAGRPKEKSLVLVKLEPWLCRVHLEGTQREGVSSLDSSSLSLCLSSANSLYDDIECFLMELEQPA
Method: protein-binding microarray
Molecule type: double-stranded DNA, one strand shown
Sample: in vitro
Tested at: 250 nM
Notes: 60-bp whole probe
Added: salmon DNA 0.4 mg/ml
Relative to: random background probes
Reading: higher = stronger binding
Constant ends, left off below: GCCTAGCAC … GTCTTGATTCGCTTGACGCTGCTG
With `AATTACATTTCATAGAGTGTGTGCTAG` the log fluorescence was 0.219 z-score.
With `GACGGACTGCTTATCCTCACGTGCTAG` the log fluorescence was -0.0625 z-score.
`TTAGGTTTCTTTCTCCTTTAGTGCTAG` gave a log fluorescence of 2.81 z-score.
The log fluorescence of `GACGGACAGGGTCTCGGGACGTGCTAG` is reported as -0.514 z-score.
The log fluorescence of `GACGAACTCGGGTATCGAGACGTGCTA` is reported as -0.216 z-score.
For `TTAAATCTCAGTCTCGATTAGTGCTAG`, the log fluorescence was 2.02 z-score.
For `TTAGGTTTCGACACTGGGTGAGTGCTA`, the log fluorescence was 3.36 z-score.
With `TCATGAAGCGCTTCTCGAACTGTGCTA` the log fluorescence was -0.391 z-score.
For `TTAGGACTGCTTTTCCTTCAGTGCTAG`, the log fluorescence was 1.17 z-score.
`TCACCAATGCTTCTGGTACTGTGCTAG` has a log fluorescence of -0.742 z-score.
`TTAGGATTGGGGTTTCGGTTAGTGCTA` has a log fluorescence of 5.26 z-score.

Set 3
Target: Fragile X messenger ribonucleoprotein 1, C-terminal low-complexity region (Fmr1, Mus musculus, UniProt P35922)
Method: RNA Bind-n-Seq
Molecule type: RNA
Sample: in vitro
Tested at: 200 nM
Notes: whole 134-nt RNA, ends assumed
Added: 150 mM KCl
Relative to: input library
Reading: higher = stronger binding
With `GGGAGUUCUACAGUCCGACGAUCUCCUCAAGUCCUGUGCUACACAUCGUAUGUACCGAAUCGGCGGCGGCGGGGAAAGUAUUAUGUUACGCCGUUCGGAUCUGCACUUCCAGCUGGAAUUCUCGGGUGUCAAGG` the log2 enrichment was 0.00459.
With `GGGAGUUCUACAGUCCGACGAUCGUCCUGUGCUACACAUCGUAUGUACCGAAUCGGUUUUUUGGUUUUUUGGUUUUUUGGGAAAGUAUUAUGUUACGCCGUUCGGAUCUGCACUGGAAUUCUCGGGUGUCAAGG` the log2 enrichment was -0.828.
For `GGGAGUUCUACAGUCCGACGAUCUCCUGUGCUACACAUCGUAUGUACCGAAUCGGGGUUUUUUUGGGGUUUGGGGAAAGGGGAAAGUAUUAUGUUACGCCGUUCGGAUCUGCAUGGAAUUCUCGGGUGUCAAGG`, the log2 enrichment was 0.809.
The log2 enrichment of `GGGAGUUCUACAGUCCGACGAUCCCUCAAGUCCUGUGCUACACAUCGUAUGUACCGAAUCGGGUUGGUUGGUUGGGAAAGUAUUAUGUUACGCCGUUCGGAUCUGCACUUCCAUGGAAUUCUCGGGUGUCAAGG` is reported as 0.116.
The log2 enrichment of `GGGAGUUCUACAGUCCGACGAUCAGUCCUGUGCUACACAUCGUAUGUACCGAAUCGGGGAAAGGGGUGGGGUUUUUGGGGAAAGUAUUAUGUUACGCCGUUCGGAUCUGCACUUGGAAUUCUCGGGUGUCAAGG` is reported as 1.02.
`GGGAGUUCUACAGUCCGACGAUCAAGUCCUGUGCUACACAUCGUAUGUACCGAAUCAAAUUUUUAAACCCAAAUUUAAAAAAGUAUUAUGUUACGCCGUUCGGAUCUGCACUUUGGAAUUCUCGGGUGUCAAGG` has a log2 enrichment of -0.216.
`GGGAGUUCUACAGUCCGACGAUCUCAAGUCCUGUGCUACACAUCGUAUGUACCGAAUCGGAAAGGGGAAAGGGAAAGGAAAGUAUUAUGUUACGCCGUUCGGAUCUGCACUUCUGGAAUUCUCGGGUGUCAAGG` has a log2 enrichment of -0.56.
For `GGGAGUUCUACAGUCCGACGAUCCUCAAGUCCUGUGCUACACAUCGUAUGUACCGAAUCGGGGCCGGGCCGGCCGGAAAGUAUUAUGUUACGCCGUUCGGAUCUGCACUUCCAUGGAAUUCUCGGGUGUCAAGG`, the log2 enrichment was -0.122.
With `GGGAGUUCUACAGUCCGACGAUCAGUCCUGUGCUACACAUCGUAUGUACCGAAUCGGGUUUUUGGUUUUUGGUUUUUGGGAAAGUAUUAUGUUACGCCGUUCGGAUCUGCACUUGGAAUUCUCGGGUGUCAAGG` the log2 enrichment was -0.8.

Set 4
Target: Histone acetyltransferase KAT6A, winged helix 2, GST fusion (KAT6A, Homo sapiens, UniProt Q92794, residues 85-181)
Method: protein binding microarray
Molecule type: double-stranded DNA, one strand shown
Sample: in vitro
Tested at: not given
Notes: 8-mer, flanks averaged, mean of 2 arrays, mostly near background
Relative to: not given
Reading: higher = stronger binding
Residues (chain): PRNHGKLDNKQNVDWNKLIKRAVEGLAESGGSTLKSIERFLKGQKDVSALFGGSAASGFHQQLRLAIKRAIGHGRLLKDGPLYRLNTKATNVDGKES
`ATCCCCAC` has an E-score of 0.068.
`CCACCTAA` has an E-score of -0.0561.
For `TCGAGAGA`, the E-score was 0.085.
The E-score of `CGTTGCAC` is reported as 0.179.
With `AACATCAA` the E-score was -0.0364.
`CCATCAAC` gave an E-score of -0.0323.
For `AGGCAGAC`, the E-score was 0.00547.
For `GCGACTTA`, the E-score was -0.126.
With `ACACATCT` the E-score was -0.15.
`CACTATAC` has an E-score of 0.0289.
With `AGCAGGAG` the E-score was 0.0585.
`AAACCAGA` has an E-score of 0.105.
For `ACCGCGAT`, the E-score was 0.131.
For `ACCCCAAA`, the E-score was 0.0044.
The E-score of `AGCCGGTA` is reported as 0.132.
The E-score of `GACAACGC` is reported as -0.147.
`AGATAGAT` gave an E-score of -0.156.
For `AACGAAGG`, the E-score was -0.00269.
`GAAAAAGA` has an E-score of 0.125.
The E-score of `GAAAAACC` is reported as 0.0759.
`CCGTTTTC` has an E-score of 0.0118.
`GAGCGCAA` gave an E-score of 0.0157.
For `GACGAGCC`, the E-score was 0.101.

A few entries again (set 2):
With `TCATGAAGCGCTTCTCGAACTGTGCTA` the log fluorescence was -0.391 z-score.
`TTAGGATTGGGGTTTCGGTTAGTGCTA` has a log fluorescence of 5.26 z-score.
`TCACCAATGCTTCTGGTACTGTGCTAG` has a log fluorescence of -0.742 z-score.
`TTAGGTTTCTTTCTCCTTTAGTGCTAG` gave a log fluorescence of 2.81 z-score.
The log fluorescence of `GACGGACAGGGTCTCGGGACGTGCTAG` is reported as -0.514 z-score.
For `TTAGGACTGCTTTTCCTTCAGTGCTAG`, the log fluorescence was 1.17 z-score.
The log fluorescence of `GACGAACTCGGGTATCGAGACGTGCTA` is reported as -0.216 z-score.
For `TTAGGTTTCGACACTGGGTGAGTGCTA`, the log fluorescence was 3.36 z-score.
With `GACGGACTGCTTATCCTCACGTGCTAG` the log fluorescence was -0.0625 z-score.
With `AATTACATTTCATAGAGTGTGTGCTAG` the log fluorescence was 0.219 z-score.
